Experimental data of several laboratories.
Each line is one published result; not all experiments were run side by side. Several values in a cell are separate wells, animals, samples, runs or records. Numbers after ± are the reported error.

The remaining compound of `O=C(O)c1ccc(-c2nc(-c3ccccc3Cl)c3sccn23)cc1` is reported as 50.8% (mouse liver microsomes; 1 µM, 30 min).
With `CCN(CC)CCOc1ccc(-c2nnn(Cc3ccc(OC)cc3)c2N)cc1` the remaining compound was 32.6% (mouse hepatocytes; concentration not given, time not given).
`O=c1[nH]c2ccccc2c(=O)o1` has a remaining compound of 41% (HPLC-MS; HEPES buffer; 1 h, pH 7.4).
With `C/C(=N\OCCCN1CCCCC1)c1ccc(C(F)(F)F)cc1` the remaining compound was 58% (mouse liver microsomes; 30 min).
`Cc1nnc(-c2ccc(CC(=O)NCCCC[C@H](NC(=O)c3ccc(OCc4ccc(B(O)O)cc4)c(-c4nc5ccccc5c(=O)[nH]4)c3)C(=O)NCC(=O)NCC(=O)NCC(=O)N[C@@H](Cc3ccccc3)C(=O)N[C@@H](Cc3ccccc3)C(=O)O)cc2)nn1` has a remaining compound of 100% and 101% (UPLC-MS/MS; human serum; 100 µM, 0.5 h, 37 °C).
`C=CCN1CCC23c4c5ccc(OC(=O)c6ccc(NC(=O)OC(C)(C)C)cc6)c4OC2C(=O)CCC3(O)C1C5` (centres unmarked) has a remaining compound of 99.2% and 100% and 101% (human plasma; 0 h).
With `CC(C)=CCC/C(C)=C/CCn1cc(CC(P(=O)(O)O)P(=O)(O)O)nn1` the remaining compound was 100 ± 7.7% (mouse plasma; 4 h, 37 °C, equilibrium dialysis stability).
The remaining compound of `C[C@@H](Oc1ccc2c(c1)[C@H]1CCN[C@@]1(C)CO2)c1ccccc1` is reported as 97% (HPLC; DPBS; 10 µM, 4 h, added: CellROX Green 5 µM and tBHP 55 µM).
The remaining compound of `CC(=O)N[C@@H](CCCNC(=N)N)C(=O)N[C@@H](CCCCN)C(=O)N[C@@H](CCC(=O)N=S(c1ccc(Cl)cc1)c1ccccc1O)C(=O)N[C@H](C(=O)N[C@@H](Cc1ccc(O)cc1)C(N)=O)C(C)C` (some centres unmarked) is reported as 99.3% (HPLC; 95% fetal bovine serum in PBS; 0.5 mM, 1 h, pH 7.4, 37 °C).
`COc1cc2c(cc1NC(=O)c1cncn1C)C[C@H]1[C@H]3CCCC[C@@]23CCN1C` gave a remaining compound of 97.8% (mouse plasma, 50% in PBS; 5 µM, 1 h, 37 °C).
The remaining compound of `C=CCN1CCC23c4c5ccc(OC(=O)c6ccc(N)cc6)c4OC2C(=O)CCC3(O)C1C5` (centres unmarked) is reported as 6% and 5.6% and 4.7% (rat plasma; 0.5 h, no inhibitor).
The remaining compound of `Cc1cc(-c2ccc3ccccc3c2)nnc1NCCN1CCN(C)CC1` is reported as 93.8% (human liver microsomes; 60 min).
With `C[C@H](NCc1ccc(-c2ccc(C(F)(F)F)cc2)cc1)C(N)=O` the remaining compound was 60.7% (dog liver microsomes; 1 µM, 30 min).
`C=CCN1CCC23c4c5ccc(OC(=O)c6ccccc6)c4OC2C(=O)CCC3(O)C1C5` (centres unmarked) has a remaining compound of 11.4% and 11.6% and 13.1% (rat plasma; 1 h, added: loperamide 100 µM).
